Published values pooled from the literature.
Each numbered part is a random draw from the data of one study; scales do not carry over between parts.
Chain of UniProt P00519 (whole entry, unmodified, looked up): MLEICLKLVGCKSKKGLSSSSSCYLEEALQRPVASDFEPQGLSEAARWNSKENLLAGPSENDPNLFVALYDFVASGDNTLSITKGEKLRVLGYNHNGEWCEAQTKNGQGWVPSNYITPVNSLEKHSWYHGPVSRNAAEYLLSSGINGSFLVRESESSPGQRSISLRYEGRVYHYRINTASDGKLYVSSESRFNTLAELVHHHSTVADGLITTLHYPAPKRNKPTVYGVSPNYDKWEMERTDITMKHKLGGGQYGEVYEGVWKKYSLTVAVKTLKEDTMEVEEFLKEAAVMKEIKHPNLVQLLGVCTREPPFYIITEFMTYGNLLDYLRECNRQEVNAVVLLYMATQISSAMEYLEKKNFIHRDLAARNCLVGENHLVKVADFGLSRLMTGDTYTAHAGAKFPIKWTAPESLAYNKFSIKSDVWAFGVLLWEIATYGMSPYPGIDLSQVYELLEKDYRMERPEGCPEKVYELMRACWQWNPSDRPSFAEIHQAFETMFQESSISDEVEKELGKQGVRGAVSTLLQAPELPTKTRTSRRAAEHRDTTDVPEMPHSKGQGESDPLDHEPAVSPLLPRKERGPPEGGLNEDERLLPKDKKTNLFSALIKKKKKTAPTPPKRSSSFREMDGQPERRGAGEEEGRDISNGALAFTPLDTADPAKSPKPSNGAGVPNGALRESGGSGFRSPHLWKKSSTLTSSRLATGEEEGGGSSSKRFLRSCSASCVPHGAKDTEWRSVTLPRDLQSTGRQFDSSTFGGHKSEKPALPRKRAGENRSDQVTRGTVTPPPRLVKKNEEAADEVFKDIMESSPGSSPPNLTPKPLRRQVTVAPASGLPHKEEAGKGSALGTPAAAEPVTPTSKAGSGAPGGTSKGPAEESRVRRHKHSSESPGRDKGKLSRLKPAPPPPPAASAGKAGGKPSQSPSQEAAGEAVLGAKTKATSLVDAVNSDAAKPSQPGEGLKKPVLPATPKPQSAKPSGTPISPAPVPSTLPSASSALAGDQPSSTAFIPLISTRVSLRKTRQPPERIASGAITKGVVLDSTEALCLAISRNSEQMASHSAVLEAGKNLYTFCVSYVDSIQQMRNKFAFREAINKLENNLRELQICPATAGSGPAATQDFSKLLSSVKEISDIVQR
Chain of UniProt O15264 (whole entry, looked up): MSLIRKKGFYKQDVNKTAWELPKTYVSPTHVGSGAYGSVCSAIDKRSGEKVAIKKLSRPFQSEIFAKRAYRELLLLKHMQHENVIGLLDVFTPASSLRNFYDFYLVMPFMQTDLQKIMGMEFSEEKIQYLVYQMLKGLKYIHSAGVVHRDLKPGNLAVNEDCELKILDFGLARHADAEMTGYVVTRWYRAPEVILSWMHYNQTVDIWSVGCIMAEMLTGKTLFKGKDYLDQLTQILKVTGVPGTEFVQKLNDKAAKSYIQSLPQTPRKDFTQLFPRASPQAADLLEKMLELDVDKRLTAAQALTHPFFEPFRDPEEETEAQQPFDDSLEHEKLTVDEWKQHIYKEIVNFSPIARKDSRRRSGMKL

Study 1
SMILES: Cc1c(NC(=O)c2cc(C(N)=O)nc3cc(F)ccc23)c(C(F)(F)F)nn1Cc1ccc(C(C)(C)C)cc1
Method: competition with immobilised ligand
Concentration: 1 µM
Endpoint: remaining binding
target = Ephrin type-A receptor 3 (EPHA3, Homo sapiens, UniProt P29320); observed = cell-free assay; value = 98%
target = Mitogen-activated protein kinase kinase kinase 10 (MAP3K10, Homo sapiens, UniProt Q02779); observed = cell-free assay; value = 78%
target = Mitogen-activated protein kinase kinase kinase 9 (MAP3K9, Homo sapiens, UniProt P80192); observed = cell-free assay; value = 100%
target = Serine/threonine-protein kinase RIO2 (RIOK2, Homo sapiens, UniProt Q9BVS4); observed = cell-free assay; value = 76%
target = Mitogen-activated protein kinase 7 (MAPK7, Homo sapiens, UniProt Q13164); observed = cell-free assay; value = 100%
target = Phosphorylase b kinase gamma catalytic chain, liver/testis isoform (PHKG2, Homo sapiens, UniProt P15735); observed = cell-free assay; value = 83%
target = TGF-beta receptor type-2 (TGFBR2, Homo sapiens, UniProt P37173); observed = cell-free assay; value = 100%
target = Activin receptor type-1 (ACVR1, Homo sapiens, UniProt Q04771); observed = cell-free assay; value = 100%
target = Tyrosine-protein kinase JAK1, JH1 (JAK1, Homo sapiens, UniProt P23458); observed = cell-free assay; value = 100%
target = Macrophage-stimulating protein receptor (MST1R, Homo sapiens, UniProt Q04912); observed = cell-free assay; value = 80%
target = Epidermal growth factor receptor (EGFR, Homo sapiens, UniProt P00533); observed = cell-free assay; value = 100%
target = Cyclin-dependent kinase 3 (CDK3, Homo sapiens, UniProt Q00526); observed = cell-free assay; value = 100%
target = Proto-oncogene tyrosine-protein kinase receptor Ret (RET, Homo sapiens, UniProt P07949); observed = cell-free assay; value = 100%
target = Tyrosine-protein kinase receptor Tie-1 (TIE1, Homo sapiens, UniProt P35590); observed = cell-free assay; value = 100%
target = Microtubule-associated serine/threonine-protein kinase 1 (MAST1, Homo sapiens, UniProt Q9Y2H9); observed = cell-free assay; value = 100%
target = Ribosomal protein S6 kinase alpha-5, N-terminal kinase domain (RPS6KA5, Homo sapiens, UniProt O75582); observed = cell-free assay; value = 100%
target = Ribosomal protein S6 kinase beta-1 (RPS6KB1, Homo sapiens, UniProt P23443); observed = cell-free assay; value = 100%
target = Tyrosine-protein kinase ABL1, phosphorylated (ABL1, Homo sapiens, UniProt P00519, E255K); observed = binding; value = 100%
target = Misshapen-like kinase 1 (MINK1, Homo sapiens, UniProt Q8N4C8); observed = cell-free assay; value = 90%
target = Dual specificity protein kinase CLK3 (CLK3, Homo sapiens, UniProt P49761); observed = cell-free assay; value = 100%
target = Non-receptor tyrosine-protein kinase TYK2, JH2 (TYK2, Homo sapiens, UniProt P29597); observed = cell-free assay; value = 100%
target = Mitogen-activated protein kinase 13 (MAPK13, Homo sapiens, UniProt O15264); observed = cell-free assay; value = 49%
target = Serine/threonine-protein kinase 26 (STK26, Homo sapiens, UniProt Q9P289); observed = cell-free assay; value = 100%
target = G protein-coupled receptor kinase 4 (GRK4, Homo sapiens, UniProt P32298); observed = cell-free assay; value = 100%
target = Tyrosine-protein kinase ABL1, phosphorylated (ABL1, Homo sapiens, UniProt P00519, F317L); observed = cell-free assay; value = 98%

Study 2
SMILES: CC#CC(=O)N1CCC[C@H]1c1nc(-c2ccc(C(=O)Nc3ccccn3)cc2)c2c(N)nccn12
Observed: enzyme activity
Mode: inhibitor
Concentration: 1 µM
Endpoint: inhibition
target = Wee1-like protein kinase 2 (WEE2, Homo sapiens, UniProt P0C1S8); value = 0%
target = Atypical kinase COQ8B, mitochondrial (COQ8B, Homo sapiens, UniProt Q96D53); value = 0%
target = Mast/stem cell growth factor receptor Kit, autoinhibited (KIT, Homo sapiens, UniProt P10721); value = 3%
target = Glycogen synthase kinase-3 alpha (GSK3A, Homo sapiens, UniProt P49840); value = 1%
target = Mitogen-activated protein kinase 8 (MAPK8, Homo sapiens, UniProt P45983); value = 19%
target = Peripheral plasma membrane protein CASK (CASK, Homo sapiens, UniProt O14936); value = 39%
target = 5'-AMP-activated protein kinase catalytic subunit alpha-2 (PRKAA2, Homo sapiens, UniProt P54646); value = 0%
target = Epidermal growth factor receptor (EGFR, Homo sapiens, UniProt P00533, del747-750/T751S); value = 3%
target = Cyclin-dependent kinase 11A (CDK11A, Homo sapiens, UniProt Q9UQ88); value = 7%

Study 3
Target: Ephrin type-A receptor 7 (EPHA7, Homo sapiens, UniProt Q15375)
Chain of UniProt Q15375 (whole entry, looked up): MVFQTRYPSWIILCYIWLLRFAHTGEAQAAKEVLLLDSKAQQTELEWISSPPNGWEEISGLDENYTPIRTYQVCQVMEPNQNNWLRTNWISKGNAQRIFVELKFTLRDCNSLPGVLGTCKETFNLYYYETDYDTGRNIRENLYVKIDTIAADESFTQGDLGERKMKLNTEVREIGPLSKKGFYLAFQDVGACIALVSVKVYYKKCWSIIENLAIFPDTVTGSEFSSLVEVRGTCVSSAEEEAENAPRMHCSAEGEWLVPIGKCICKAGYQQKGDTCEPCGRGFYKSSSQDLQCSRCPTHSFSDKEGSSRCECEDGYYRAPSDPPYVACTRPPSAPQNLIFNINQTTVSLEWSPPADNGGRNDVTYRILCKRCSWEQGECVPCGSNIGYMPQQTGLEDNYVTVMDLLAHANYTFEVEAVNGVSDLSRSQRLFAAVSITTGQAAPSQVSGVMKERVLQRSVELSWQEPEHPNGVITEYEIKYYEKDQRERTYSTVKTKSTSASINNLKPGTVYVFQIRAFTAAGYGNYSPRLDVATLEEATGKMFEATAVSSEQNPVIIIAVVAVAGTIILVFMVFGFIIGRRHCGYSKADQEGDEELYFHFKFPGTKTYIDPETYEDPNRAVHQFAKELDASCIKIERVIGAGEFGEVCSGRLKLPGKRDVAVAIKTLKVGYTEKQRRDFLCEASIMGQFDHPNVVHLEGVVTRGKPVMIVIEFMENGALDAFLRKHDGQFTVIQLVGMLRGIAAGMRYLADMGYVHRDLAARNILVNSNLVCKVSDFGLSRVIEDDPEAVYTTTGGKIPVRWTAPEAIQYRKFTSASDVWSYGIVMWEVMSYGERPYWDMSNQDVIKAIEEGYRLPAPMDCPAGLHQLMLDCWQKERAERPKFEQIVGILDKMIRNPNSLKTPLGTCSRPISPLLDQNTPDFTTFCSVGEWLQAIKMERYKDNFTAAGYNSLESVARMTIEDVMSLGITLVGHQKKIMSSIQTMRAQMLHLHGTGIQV
Observed: enzyme activity
Mode: inhibitor
Concentration: 0.5 µM
Reference: control
Endpoint: remaining activity
Structure (SMILES) = CC(C)N(CCC(=O)c1ccc2ccccc2c1)Cc1ccccc1; value = 106%
Structure (SMILES) = O=C1NC(=O)/C(=C/c2ccc3c(c2)OC(F)(F)O3)S1; value = 98.7%
Structure (SMILES) = O=C(O)/C=C/c1cc(Br)c(Br)c(Br)c1Br; value = 94.1%
Structure (SMILES) = N#C/C(=C(/N)SC1C=CC=CC1)c1cccc(C(O)c2ccncc2)c1 (stereo not drawn); value = 105%
Structure (SMILES) = Clc1ccc(Nc2nnc(Cc3ccncc3)c3ccccc23)cc1; value = 90.5%
Structure (SMILES) = COc1cc2c(N3CCN(C(=O)Nc4ccc(OC(C)C)cc4)CC3)ncnc2cc1OCCCN1CCCCC1; value = 97.5%
Structure (SMILES) = CNc1cc2c(Nc3cccc(Br)c3)ncnc2cn1; value = 94.6%
Structure (SMILES) = O=C(c1ccccc1)c1ccc(N2CCOCC2)cc1O; value = 98.3%
Structure (SMILES) = Nc1nc(Nc2ccc(S(N)(=O)=O)cc2)nn1C(=S)Nc1c(F)cccc1F; value = 14.2%
Structure (SMILES) = NC(=O)c1cccc(-c2cc(Nc3ccc(OC(F)(F)F)cc3)ncn2)c1; value = 99.1%
Structure (SMILES) = CC(C)(C)c1nc2c3cc[nH]c(=O)c3c3cc(F)ccc3c2[nH]1; value = 96%
Structure (SMILES) = CCN(CC)CCCCN1c2ccccc2Oc2ccc(Cl)cc21; value = 102%
Structure (SMILES) = NC(=O)c1ccc(-c2nc(-c3ccc4c(c3)OCCO4)c(-c3ccccn3)[nH]2)cc1; value = 96.5%
Structure (SMILES) = CC(C)n1cnc2c(Nc3cccc(Cl)c3)nc(NCCO)nc21; value = 87.1%
Structure (SMILES) = C[C@@H](N)[C@H]1CC[C@H](C(=O)Nc2ccncc2)CC1; value = 88.9%
Structure (SMILES) = COc1cc2c(Nc3ccc(Br)cc3F)ncnc2cc1OCC1CCN(C)CC1; value = 31.8%
Structure (SMILES) = c1cc(-c2cnn3cc(-c4ccc(OCCN5CCCCC5)cc4)cnc23)ccn1; value = 79.8%
Structure (SMILES) = CCCCc1c(-c2ccc(O)cc2)[nH]c2nccnc12; value = 89%
Structure (SMILES) = N#CC(c1ccnc(NCCc2cccnc2)n1)c1nc2ccccc2s1 (stereo not drawn); value = 99.4%
Structure (SMILES) = FC(F)(F)c1ccc(/C=C/c2nc(COc3ccc(CCCCn4ccnn4)cc3)co2)cc1; value = 95.2%
Structure (SMILES) = O=Nc1c(-c2c(O)[nH]c3ccccc23)[nH]c2ccccc12; value = 89.3%

Study 4
Target: DNA polymerase theta, ATPase domain (POLQ, Homo sapiens, UniProt O75417)
Chain of UniProt O75417 (whole entry, unmodified, looked up): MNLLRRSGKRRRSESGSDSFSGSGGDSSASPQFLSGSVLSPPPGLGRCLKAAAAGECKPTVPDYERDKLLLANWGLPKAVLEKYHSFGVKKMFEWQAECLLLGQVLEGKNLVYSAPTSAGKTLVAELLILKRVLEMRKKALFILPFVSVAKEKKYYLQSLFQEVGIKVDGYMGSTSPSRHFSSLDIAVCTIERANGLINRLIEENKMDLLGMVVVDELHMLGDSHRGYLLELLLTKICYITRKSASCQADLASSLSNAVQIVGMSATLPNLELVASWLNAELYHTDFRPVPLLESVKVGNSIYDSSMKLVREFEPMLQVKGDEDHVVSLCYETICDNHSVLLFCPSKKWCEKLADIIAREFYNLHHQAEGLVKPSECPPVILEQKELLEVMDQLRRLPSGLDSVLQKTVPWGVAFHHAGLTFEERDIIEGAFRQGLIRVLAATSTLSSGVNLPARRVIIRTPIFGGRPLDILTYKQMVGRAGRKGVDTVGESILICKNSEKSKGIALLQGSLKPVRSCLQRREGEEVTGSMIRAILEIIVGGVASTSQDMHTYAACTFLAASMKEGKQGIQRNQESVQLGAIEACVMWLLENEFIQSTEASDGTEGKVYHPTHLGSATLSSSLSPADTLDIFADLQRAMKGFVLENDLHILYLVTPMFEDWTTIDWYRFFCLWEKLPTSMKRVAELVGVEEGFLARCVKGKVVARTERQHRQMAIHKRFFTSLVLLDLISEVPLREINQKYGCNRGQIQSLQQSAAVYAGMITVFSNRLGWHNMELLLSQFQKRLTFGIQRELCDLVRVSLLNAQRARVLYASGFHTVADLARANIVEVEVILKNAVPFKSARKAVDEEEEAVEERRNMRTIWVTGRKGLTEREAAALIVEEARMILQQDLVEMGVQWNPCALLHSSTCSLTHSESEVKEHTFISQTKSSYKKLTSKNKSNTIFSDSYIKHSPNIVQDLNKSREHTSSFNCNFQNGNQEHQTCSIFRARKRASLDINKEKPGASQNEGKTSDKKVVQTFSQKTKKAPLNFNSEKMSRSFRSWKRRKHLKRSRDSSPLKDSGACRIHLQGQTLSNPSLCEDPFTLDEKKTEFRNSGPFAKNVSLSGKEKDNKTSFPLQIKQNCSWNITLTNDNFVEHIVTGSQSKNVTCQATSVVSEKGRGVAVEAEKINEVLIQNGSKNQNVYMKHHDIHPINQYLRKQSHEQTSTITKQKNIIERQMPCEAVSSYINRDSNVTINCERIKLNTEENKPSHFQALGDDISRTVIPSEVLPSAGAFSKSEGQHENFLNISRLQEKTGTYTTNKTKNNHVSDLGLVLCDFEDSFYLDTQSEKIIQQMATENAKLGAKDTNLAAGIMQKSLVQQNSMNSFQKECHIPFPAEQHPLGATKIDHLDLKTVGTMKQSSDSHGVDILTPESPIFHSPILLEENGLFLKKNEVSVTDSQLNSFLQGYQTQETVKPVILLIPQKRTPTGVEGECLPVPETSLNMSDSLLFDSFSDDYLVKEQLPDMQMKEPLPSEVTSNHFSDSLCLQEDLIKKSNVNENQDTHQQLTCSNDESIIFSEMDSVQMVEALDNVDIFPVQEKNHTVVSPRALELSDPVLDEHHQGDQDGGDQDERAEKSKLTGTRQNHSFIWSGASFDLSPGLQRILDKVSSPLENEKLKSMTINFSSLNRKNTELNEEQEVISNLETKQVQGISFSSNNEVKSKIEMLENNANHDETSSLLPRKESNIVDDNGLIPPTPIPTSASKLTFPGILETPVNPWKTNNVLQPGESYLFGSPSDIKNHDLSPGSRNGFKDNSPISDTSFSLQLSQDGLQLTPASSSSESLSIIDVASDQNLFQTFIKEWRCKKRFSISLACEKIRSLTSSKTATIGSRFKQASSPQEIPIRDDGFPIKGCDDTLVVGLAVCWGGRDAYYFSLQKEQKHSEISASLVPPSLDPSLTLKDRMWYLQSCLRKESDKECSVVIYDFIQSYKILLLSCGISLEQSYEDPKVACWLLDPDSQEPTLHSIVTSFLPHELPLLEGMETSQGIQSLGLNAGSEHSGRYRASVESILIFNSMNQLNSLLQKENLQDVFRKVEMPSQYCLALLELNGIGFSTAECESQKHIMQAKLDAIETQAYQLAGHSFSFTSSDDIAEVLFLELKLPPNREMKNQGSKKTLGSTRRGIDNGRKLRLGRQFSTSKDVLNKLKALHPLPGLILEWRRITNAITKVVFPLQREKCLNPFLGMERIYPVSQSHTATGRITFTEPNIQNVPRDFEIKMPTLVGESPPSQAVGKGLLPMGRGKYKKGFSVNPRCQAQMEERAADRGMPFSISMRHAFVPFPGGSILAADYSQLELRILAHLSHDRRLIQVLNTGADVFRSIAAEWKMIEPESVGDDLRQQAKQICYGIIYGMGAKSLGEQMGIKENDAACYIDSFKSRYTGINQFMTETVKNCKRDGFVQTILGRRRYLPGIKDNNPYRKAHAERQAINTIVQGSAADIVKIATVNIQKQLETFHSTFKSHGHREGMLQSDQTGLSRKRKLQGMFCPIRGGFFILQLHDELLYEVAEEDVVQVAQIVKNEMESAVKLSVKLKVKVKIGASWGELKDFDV
Observed: enzyme activity
Mode: inhibitor
Concentration: 77 µM
Endpoint: remaining activity
Compound = CC(=O)[C@H]1CC[C@H]2[C@@H]3CC=C4C[C@@H](OS(=O)(=O)O)CC[C@]4(C)[C@H]3CC[C@]12C; value = 86.6%
Compound = CN1CCN(CCCN2c3ccccc3Sc3ccc(Cl)cc32)CC1; value = 108%
Compound = Cn1cc(-c2ccc3c(c2)CCN3C(=O)Cc2cccc(C(F)(F)F)c2)c2c(N)ncnc21; value = 93.6%
Compound = COc1cccc2c1C(=O)c1c(O)c3c(c(O)c1C2=O)C[C@@](O)(C(=O)CO)C[C@@H]3O[C@H]1C[C@H](N)[C@H](O[C@@H]2CCCCO2)[C@H](C)O1; value = 89.6%
Compound = CC[C@@H](C(=O)[C@@H](C)[C@@H](O)[C@H](C)CCc1ccc(C)c(O)c1C(=O)O)[C@H]1O[C@](CC)([C@H]2CC[C@](O)(CC)[C@H](C)O2)C[C@@H]1C; value = 99.5%
Compound = CN1[C@@H](CC(=O)c2ccccc2)CCC[C@H]1C[C@H](O)c1ccccc1; value = 102%
Compound = CCn1nc(C(=O)O)c(=O)c2cc3c(cc21)OCO3; value = 99%
Compound = Cc1ccc(/C(=C\CN2CCCC2)c2ccccn2)cc1; value = 96.7%
Compound = O=C(O)c1cn(C2CC2)c2cc(N3CCNCC3)c(F)cc2c1=O; value = 92.4%
Compound = CN1CCN(C(=O)c2cc3cc(Cl)ccc3[nH]2)CC1; value = 99.8%
Compound = CCCC1C(=O)N2C(N(C)C)=Nc3ccc(C)cc3N2C1=O (stereo not drawn); value = 97.3%

Some of these lines once more (study 3):
Structure (SMILES) = C[C@@H](N)[C@H]1CC[C@H](C(=O)Nc2ccncc2)CC1; value = 88.9%
Structure (SMILES) = COc1cc2c(Nc3ccc(Br)cc3F)ncnc2cc1OCC1CCN(C)CC1; value = 31.8%
Structure (SMILES) = O=C(c1ccccc1)c1ccc(N2CCOCC2)cc1O; value = 98.3%
Structure (SMILES) = N#C/C(=C(/N)SC1C=CC=CC1)c1cccc(C(O)c2ccncc2)c1 (stereo not drawn); value = 105%
Structure (SMILES) = c1cc(-c2cnn3cc(-c4ccc(OCCN5CCCCC5)cc4)cnc23)ccn1; value = 79.8%
Structure (SMILES) = CC(C)N(CCC(=O)c1ccc2ccccc2c1)Cc1ccccc1; value = 106%
Structure (SMILES) = FC(F)(F)c1ccc(/C=C/c2nc(COc3ccc(CCCCn4ccnn4)cc3)co2)cc1; value = 95.2%
